Measurements pooled from the literature.

SMILES	cell line	read-out	method	time	CC50 [µM]
Cc1ccc(N)cc1C(=O)N[C@H](C)c1cccc2ccccc12	HEK293T			48 h	275
O=c1c2ccccc2[se]n1-c1ccncc1F	HPAEpiC	cell growth or viability	MTT	24 h	> 100
CCCNC(=O)C1OC1C(=O)NC(C(=O)N1CCCC1C(=O)OC)C(C)CC (stereo not shown)	HEK293T			48 h	47.7
CCCCCCCCC=CCCCCCCCCNC(=O)C(N)Cc1ccc(OP(=O)(O)COC(CO)Cn2ccc(N)nc2=O)cc1 (stereo not shown)	ARPE-19	cell growth or viability	neutral red		3.4
Nc1cccc(-n2[se]c3ccccc3c2=O)c1	HPAEpiC	cell growth or viability	MTT	24 h	> 100
C[C@H]1[C@H](OC(=O)CCC(=O)OCc2nnn(-c3cc4ccc(O)cc4oc3=O)c2COC(=O)CCC(=O)O[C@@H]2O[C@@H]3O[C@@]4(C)CC[C@H]5[C@H](C)CC[C@@H]([C@H]2C)[C@@]35OO4)O[C@@H]2O[C@@]3(C)CC[C@H]4[C@H](C)CC[C@@H]1[C@@]24OO3	J774	cell growth or viability	ATP luminescence	72 h	32.8
CCN(CC)C(=S)SSC(=S)N(CC)CC	HEK293T			48 h	86.7
O=c1c2ccccc2[se]n1-c1ccncc1	HPAEpiC	cell growth or viability	MTT	24 h	> 100
O=c1c2ccccc2[se]n1-c1ccccc1	HEK293T			48 h	> 100
O=c1c2ccccc2[se]n1-c1ccnc(Cl)c1	HPAEpiC	cell growth or viability	MTT	24 h	> 100
CC(C)CC(NC(=O)OCc1ccccc1)C(=O)NC(CC1CCNC1=O)C(=O)C(=O)NC1CC1 (stereo not shown)	RD			5 (unit not given)	> 250
O=C(CCN(CCC(=O)N[C@@H](Cc1c[nH]c2ccccc12)C(=O)O)C(=O)CCN(CCC(=O)N(CCC(=O)N[C@@H](Cc1c[nH]c2ccccc12)C(=O)O)CCC(=O)N[C@@H](Cc1c[nH]c2ccccc12)C(=O)O)C(=O)c1cc(C(=O)N(CCC(=O)N(CCC(=O)N[C@@H](Cc2c[nH]c3ccccc23)C(=O)O)CCC(=O)N[C@@H](Cc2c[nH]c3ccccc23)C(=O)O)CCC(=O)N(CCC(=O)N[C@@H](Cc2c[nH]c3ccccc23)C(=O)O)CCC(=O)N[C@@H](Cc2c[nH]c3ccccc23)C(=O)O)cc(C(=O)N(CCC(=O)N(CCC(=O)N[C@@H](Cc2c[nH]c3ccccc23)C(=O)O)CCC(=O)N[C@@H](Cc2c[nH]c3ccccc23)C(=O)O)CCC(=O)N(CCC(=O)N[C@@H](Cc2c[nH]c3ccccc23)C(=O)O)CCC(=O)N[C@@H](Cc2c[nH]c3ccccc23)C(=O)O)c1)N[C@@H](Cc1c[nH]c2ccccc12)C(=O)O	HEL or HeLa cells	cell viability			> 100
C[C@H]1[C@H](OC(=O)CCC(=O)OCc2cn(-c3cc4ccc(O)cc4oc3=O)nn2)O[C@@H]2O[C@@]3(C)CC[C@H]4[C@H](C)CC[C@@H]1[C@@]24OO3	J774	cell growth or viability	ATP luminescence	72 h	37.6

Repeated from above:
SMILES	cell line	read-out	method	time	CC50 [µM]
O=c1c2ccccc2[se]n1-c1ccccc1	HEK293T			48 h	> 100
O=c1c2ccccc2[se]n1-c1ccnc(Cl)c1	HPAEpiC	cell growth or viability	MTT	24 h	> 100
